Measured values collected from several papers.
Each line is one published result; not all experiments were run side by side. “And” joins repeats or separate records; there may be more than shown.
LCK: Tyrosine-protein kinase Lck (LCK, Homo sapiens, UniProt P06239)

Cc1cc(-c2ccc3ccccc3c2)nnc1NCCN1CCN(C)CC1 — inhibition (LCK; enzyme activity; concentration not given): negative
C/C(=N\OCCCN1CCCCC1)c1ccc(C(F)(F)F)cc1 — inhibition (LCK; antagonist, TR-FRET; 10 µM): 25.8%
O=C(O)c1ccc(-c2nc(-c3ccccc3Cl)c3sccn23)cc1 — specific binding (LCK; radioligand binding, safety screen panel; 10 µM; baseline: control): 105% and 113%
C[C@H](NCc1ccc(-c2ccc(C(F)(F)F)cc2)cc1)C(N)=O — inhibition (LCK; kinase activity, SafetyScreen panel; 1 µM, together with: 200 µg/mL poly(Glu:Tyr)): 0%
Cc1cc(Nc2nc(C[C@@]3(C(=O)O)CCN(Cc4cccc(Cl)c4F)[C@H](C)C3)cc(C)c2F)[nH]n1 — inhibition (LCK; enzyme activity, inhibitor; 10 µM): 49.2%
CC(C)[C@H]1NC(=O)C[C@H]2/C=C/CCSSC[C@@H](NC1=O)C(=O)N[C@H](Cc1cccc3ccccc13)C(=O)NCC(=O)O2 — inhibition (LCK; enzyme activity, inhibitor; 10 µM): -5.9%
CCN(CC)CCOc1ccc(-c2nnn(Cc3ccc(OC)cc3)c2N)cc1 — inhibition (LCK; enzyme activity; 10 µM): 0.01%
N[C@H](C(=O)N1CCCC1)C1CCN(c2nccc3c(-c4ncc(Cl)cc4Cl)cccc23)CC1 — inhibition (LCK; enzyme activity, inhibitor; 10 µM): 16%
CCO[C@H]1[C@H](O)[C@@H](N)[C@@H](O[C@H]2[C@H](O[C@@H]3O[C@H](CO)[C@@H](O[C@H]4O[C@@H](CN)[C@@H](O)[C@H](O)[C@H]4N)[C@H]3O)[C@@H](O)[C@H](N)C[C@@H]2N)O[C@@H]1CO — remaining signal (LCK; cell-free assay; 10 µM): 35%
CS(C)(=O)=Nc1ccc(-c2ccc(-c3nc4cc(O[C@@H]5CO[C@H]6[C@@H]5OC[C@H]6O)[nH]c4cc3F)cc2)cc1 — inhibition (Tyrosine-protein kinase Lck, phosphorylated (LCK, Homo sapiens, UniProt P06239); enzyme activity, inhibitor; 10 µM): -8%
COc1ccc(F)cc1S(=O)(=O)Nc1cnc2c(c1)C(=O)NCCO2 — inhibition (LCK; enzyme activity, inhibitor; 10 µM): -21%
CCc1nnc(-c2c(OC)cc(-c3cnc4cc(-c5cnn(C)c5)ccn34)cc2OC)o1 — inhibition of specific binding (LCK; 10 µM): 55%
O=C1NC(=O)c2c1c1cc(F)c[n+]3c1c1c2c2cc(O)ccc2[n]1[Ru-4]312([N]=C=S)[S+]3CC[S+]1CC[S+]2CC3 (stereo not shown) — remaining activity (LCK; enzyme activity; 100 nM, human enzyme, together with: 10 µM ATP; baseline: untreated): 35%
